Measured values gathered from unrelated publications.
Lines come from different studies, so protocols differ. ± gives the spread as reported.
Cell line: HaCaT

`Brc1ccc2nc3c4ccc[n+]5c4c4c(ccc[n+]4[Ru-4]546([n+]5ccccc5-c5cccc[n+]54)[n+]4ccccc4-c4cccc[n+]46)c3nc2c1.[O-][Cl+3]([O-])([O-])O.[O-][Cl+3]([O-])([O-])O` has an IC50 of greater than 100 µM (cell growth or viability, MTT; 72 h).
`CCCCCCCCCCCCCC(=O)N[C@@H](CCCCN)C(=O)N[C@@H](CCCCN)C(=O)N[C@@H](CCCCN)C(=O)N[C@@H](CCCCN)C(=O)N[C@@H](CCCCN)C(N)=O` has an IC50 of 21.4 µg/mL (cytotoxicity).
For `NC(=O)C[C@H](N)C(=O)N[C@@H](Cc1ccccc1)C(=O)N[C@@H](Cc1ccccc1)C(=O)O`, the viability was 135 ± 9.06% (CCK-8; 10 µg/mL, 72 h, 0.4 % serum).
`CCOP(=O)(OCC)C(Cc1ccccc1F)Nc1ccccc1` (centres unmarked) has an IC50 of 61.8 µM (cell growth or viability, MTT; 48 h).
With `CCCCCCCCCCCCCCCCCC(=O)N[C@@H](CCCNC(=N)N)C(=O)N[C@@H](CCCNC(=N)N)C(=O)N[C@@H](CCCNC(=N)N)C(=O)N[C@@H](CCCNC(=N)N)C(=O)N[C@@H](CCCNC(=N)N)C(N)=O` the IC50 was greater than 150 µg/mL (cytotoxicity).
The IC50 of `CCOP(=O)(OCC)C(Cc1ccccc1F)Nc1ccc(Cl)cc1` (centres unmarked) is reported as greater than 100 µM (cell growth or viability, MTT; 48 h).
With `CCCCN(CCCC)CC(O)COc1c2ccoc2c(OC)c2oc(CC)cc(=O)c12` (centres unmarked) the IC50 was 43.4 µM (cell growth or viability, MTT; 72 h).
For `O=c1oc2cc(O)cc3c2c2c(cc(O)cc12)CC3`, the IC50 was 113 µM (cell growth or viability, MTT; 48 h).
For `CC(C)=CCc1c(-c2cc(O)c(O)cc2O)oc2c(CC=C(C)C)c(O)cc(O)c2c1=O`, the IC50 was 92 µM (cell growth or viability, MTT; 72 h).
`CSCC[C@H](N)C(=O)N[C@@H](Cc1ccc(O)cc1)C(=O)N[C@@H](Cc1ccccc1)C(=O)O` gave a viability of 126 ± 3.23% (CCK-8; 10 µg/mL, 72 h, 0.4 % serum).
The IC50 of `CCCCCCCCCCCCCCCCCCCC(=O)N[C@@H](CCCCN)C(=O)N[C@@H](CCCCN)C(=O)N[C@@H](CCCCN)C(=O)N[C@@H](CCCCN)C(=O)N[C@@H](CCCCN)C(N)=O` is reported as 35.9 µg/mL (cytotoxicity).
The IC50 of `CCOP(=O)(OCC)C(Cc1cc(F)c(F)c(F)c1)Nc1ccccc1` (centres unmarked) is reported as 33.2 µM (cell growth or viability, MTT; 48 h).
The IC50 of `CCCCCCCCCCCCCCCCCC(=O)N[C@@H](CCCN)C(=O)N[C@@H](CCCN)C(=O)N[C@@H](CCCN)C(=O)N[C@@H](CCCN)C(=O)N[C@@H](CCCN)C(N)=O` is reported as 37.1 µg/mL (cytotoxicity).
The IC50 of `CCn1cc(/C=C/c2ccc3ccccc3[n+]2CC)c2ccccc21` is reported as 1.74 µM (cell growth or viability, MTT; 24 h).

Some of these lines once more:
The IC50 of `CCCCCCCCCCCCCCCCCCCC(=O)N[C@@H](CCCCN)C(=O)N[C@@H](CCCCN)C(=O)N[C@@H](CCCCN)C(=O)N[C@@H](CCCCN)C(=O)N[C@@H](CCCCN)C(N)=O` is reported as 35.9 µg/mL (cytotoxicity).
The IC50 of `CCn1cc(/C=C/c2ccc3ccccc3[n+]2CC)c2ccccc21` is reported as 1.74 µM (cell growth or viability, MTT; 24 h).
